Measured values gathered from unrelated publications.
Each line is one published result; not all experiments were run side by side. Several values in a cell are separate wells, animals, samples, runs or records. Numbers after ± are the reported error.
Genome polyprotein protease: Genome polyprotein, protease (dengue virus type 2, UniProt P29990)
Proteasome component C5/PSMB5 chymotrypsin-like site: Proteasome component C5/PSMB5, chymotrypsin-like site (Homo sapiens, UniProt P20618+P28074)
Chain of UniProt P20618 (whole entry, looked up): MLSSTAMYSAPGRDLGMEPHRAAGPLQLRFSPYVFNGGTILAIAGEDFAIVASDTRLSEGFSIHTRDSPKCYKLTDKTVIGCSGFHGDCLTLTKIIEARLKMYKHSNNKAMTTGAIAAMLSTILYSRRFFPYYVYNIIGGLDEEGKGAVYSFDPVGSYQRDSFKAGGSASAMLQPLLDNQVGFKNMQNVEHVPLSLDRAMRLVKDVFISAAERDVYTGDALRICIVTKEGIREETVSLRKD
Chain of UniProt P28074 (whole entry, looked up): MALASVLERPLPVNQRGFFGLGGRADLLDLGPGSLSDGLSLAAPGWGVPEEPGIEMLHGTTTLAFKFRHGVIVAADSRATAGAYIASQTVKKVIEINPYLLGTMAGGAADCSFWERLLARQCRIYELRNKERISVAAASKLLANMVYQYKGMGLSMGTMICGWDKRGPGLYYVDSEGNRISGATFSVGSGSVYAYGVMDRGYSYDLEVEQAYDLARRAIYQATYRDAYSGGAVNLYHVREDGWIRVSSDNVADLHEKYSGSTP
Genome polyprotein NS2B-NS3 protease: Genome polyprotein, NS2B-NS3 protease (ZIKV, UniProt A0A024B7W1)
Chain of UniProt A0A024B7W1 (whole entry, looked up): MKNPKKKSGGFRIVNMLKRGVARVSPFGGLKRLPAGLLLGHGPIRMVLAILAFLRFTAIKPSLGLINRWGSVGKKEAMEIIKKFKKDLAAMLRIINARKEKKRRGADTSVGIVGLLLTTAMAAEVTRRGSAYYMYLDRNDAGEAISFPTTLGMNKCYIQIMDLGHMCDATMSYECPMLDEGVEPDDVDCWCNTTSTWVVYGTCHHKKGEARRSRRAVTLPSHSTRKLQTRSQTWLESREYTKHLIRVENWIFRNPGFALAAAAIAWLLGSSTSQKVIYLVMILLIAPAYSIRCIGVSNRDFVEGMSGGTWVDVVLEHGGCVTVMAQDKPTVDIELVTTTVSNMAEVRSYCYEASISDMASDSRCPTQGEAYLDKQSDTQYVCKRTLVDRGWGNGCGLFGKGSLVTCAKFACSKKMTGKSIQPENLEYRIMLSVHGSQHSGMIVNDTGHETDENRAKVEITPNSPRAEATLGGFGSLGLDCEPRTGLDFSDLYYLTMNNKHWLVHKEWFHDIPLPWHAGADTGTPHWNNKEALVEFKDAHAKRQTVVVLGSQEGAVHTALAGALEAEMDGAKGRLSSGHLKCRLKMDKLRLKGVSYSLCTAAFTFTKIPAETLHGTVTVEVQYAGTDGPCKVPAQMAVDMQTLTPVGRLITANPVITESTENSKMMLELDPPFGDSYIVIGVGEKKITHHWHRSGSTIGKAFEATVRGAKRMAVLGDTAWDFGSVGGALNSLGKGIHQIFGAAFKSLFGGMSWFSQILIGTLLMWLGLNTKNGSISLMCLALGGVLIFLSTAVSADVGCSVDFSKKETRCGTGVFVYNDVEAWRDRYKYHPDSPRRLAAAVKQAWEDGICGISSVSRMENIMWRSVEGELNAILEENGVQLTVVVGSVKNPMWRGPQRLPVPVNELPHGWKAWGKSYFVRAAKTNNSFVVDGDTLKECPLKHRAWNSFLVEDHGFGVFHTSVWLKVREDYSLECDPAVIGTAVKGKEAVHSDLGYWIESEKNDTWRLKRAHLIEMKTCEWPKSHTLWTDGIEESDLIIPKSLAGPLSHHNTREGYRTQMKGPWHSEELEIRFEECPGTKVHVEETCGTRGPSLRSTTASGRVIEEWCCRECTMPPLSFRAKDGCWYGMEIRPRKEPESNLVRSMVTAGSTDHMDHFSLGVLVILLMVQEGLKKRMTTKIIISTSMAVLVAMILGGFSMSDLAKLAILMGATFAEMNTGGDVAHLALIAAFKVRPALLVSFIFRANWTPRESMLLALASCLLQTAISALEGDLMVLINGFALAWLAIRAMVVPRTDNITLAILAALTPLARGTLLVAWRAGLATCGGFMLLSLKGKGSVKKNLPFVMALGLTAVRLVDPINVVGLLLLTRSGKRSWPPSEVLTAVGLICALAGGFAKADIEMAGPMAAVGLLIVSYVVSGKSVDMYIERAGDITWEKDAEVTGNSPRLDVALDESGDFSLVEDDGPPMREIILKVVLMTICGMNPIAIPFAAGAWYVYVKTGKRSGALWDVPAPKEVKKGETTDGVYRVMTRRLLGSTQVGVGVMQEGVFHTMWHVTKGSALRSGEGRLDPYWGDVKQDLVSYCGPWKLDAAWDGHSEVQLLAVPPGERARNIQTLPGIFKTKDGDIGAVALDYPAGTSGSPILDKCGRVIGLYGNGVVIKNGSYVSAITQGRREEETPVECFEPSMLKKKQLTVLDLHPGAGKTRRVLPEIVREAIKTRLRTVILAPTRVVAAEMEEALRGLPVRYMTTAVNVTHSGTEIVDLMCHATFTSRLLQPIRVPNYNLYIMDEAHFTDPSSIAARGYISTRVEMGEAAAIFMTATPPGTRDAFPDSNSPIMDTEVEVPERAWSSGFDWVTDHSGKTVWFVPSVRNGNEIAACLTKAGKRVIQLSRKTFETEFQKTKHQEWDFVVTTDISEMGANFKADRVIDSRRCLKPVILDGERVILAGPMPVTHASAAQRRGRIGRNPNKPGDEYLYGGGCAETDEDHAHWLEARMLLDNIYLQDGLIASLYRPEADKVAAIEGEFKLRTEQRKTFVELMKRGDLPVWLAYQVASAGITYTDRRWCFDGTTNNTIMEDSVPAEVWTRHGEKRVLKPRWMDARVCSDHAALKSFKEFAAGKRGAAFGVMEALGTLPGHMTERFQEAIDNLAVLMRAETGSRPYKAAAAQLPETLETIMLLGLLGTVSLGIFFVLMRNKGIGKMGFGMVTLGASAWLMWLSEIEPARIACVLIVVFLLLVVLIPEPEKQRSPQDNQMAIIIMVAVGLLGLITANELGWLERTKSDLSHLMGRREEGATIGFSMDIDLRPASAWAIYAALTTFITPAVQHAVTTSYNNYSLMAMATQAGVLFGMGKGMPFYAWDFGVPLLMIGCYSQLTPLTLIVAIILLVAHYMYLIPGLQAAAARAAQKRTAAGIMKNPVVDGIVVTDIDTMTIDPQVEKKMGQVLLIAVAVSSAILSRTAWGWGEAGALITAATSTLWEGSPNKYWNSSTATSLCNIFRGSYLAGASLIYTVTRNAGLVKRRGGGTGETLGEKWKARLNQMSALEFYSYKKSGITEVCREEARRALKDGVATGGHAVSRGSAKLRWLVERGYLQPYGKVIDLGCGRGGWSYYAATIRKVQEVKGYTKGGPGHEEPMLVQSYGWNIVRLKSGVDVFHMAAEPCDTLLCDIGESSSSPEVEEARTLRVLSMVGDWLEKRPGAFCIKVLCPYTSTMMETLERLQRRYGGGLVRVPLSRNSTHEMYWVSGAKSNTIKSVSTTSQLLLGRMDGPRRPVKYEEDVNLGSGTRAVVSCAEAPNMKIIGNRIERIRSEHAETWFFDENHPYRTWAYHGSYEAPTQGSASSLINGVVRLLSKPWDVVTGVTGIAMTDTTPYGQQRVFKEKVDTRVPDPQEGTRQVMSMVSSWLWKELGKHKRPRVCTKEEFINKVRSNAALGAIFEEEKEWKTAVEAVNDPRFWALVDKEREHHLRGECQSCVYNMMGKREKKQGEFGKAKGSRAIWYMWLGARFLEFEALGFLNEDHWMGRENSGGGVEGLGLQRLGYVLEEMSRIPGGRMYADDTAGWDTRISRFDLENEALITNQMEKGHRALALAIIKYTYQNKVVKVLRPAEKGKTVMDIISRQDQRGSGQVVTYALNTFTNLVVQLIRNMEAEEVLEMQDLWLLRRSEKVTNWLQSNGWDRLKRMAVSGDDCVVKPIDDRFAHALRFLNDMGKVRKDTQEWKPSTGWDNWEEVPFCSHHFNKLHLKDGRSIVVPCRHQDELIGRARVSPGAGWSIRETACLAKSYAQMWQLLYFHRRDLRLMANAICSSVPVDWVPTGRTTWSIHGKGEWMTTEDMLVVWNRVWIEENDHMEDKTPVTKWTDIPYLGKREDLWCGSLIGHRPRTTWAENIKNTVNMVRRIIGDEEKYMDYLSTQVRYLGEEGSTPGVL
Chain of UniProt Q8I6U4 (whole entry, looked up): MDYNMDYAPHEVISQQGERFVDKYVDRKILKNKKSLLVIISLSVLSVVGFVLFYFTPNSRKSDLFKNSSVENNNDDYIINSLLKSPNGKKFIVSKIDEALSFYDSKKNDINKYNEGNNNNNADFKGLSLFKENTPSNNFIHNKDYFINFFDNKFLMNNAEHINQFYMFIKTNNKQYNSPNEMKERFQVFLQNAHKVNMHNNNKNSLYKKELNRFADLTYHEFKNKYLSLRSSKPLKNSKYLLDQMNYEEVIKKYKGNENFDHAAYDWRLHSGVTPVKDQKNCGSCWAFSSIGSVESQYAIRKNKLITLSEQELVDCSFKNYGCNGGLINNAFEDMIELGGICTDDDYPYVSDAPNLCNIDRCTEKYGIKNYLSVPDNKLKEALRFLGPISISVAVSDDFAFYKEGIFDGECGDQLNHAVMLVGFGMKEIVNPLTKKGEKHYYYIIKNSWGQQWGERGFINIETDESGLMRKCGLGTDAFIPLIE
Chain of UniProt Q16690 (whole entry, looked up): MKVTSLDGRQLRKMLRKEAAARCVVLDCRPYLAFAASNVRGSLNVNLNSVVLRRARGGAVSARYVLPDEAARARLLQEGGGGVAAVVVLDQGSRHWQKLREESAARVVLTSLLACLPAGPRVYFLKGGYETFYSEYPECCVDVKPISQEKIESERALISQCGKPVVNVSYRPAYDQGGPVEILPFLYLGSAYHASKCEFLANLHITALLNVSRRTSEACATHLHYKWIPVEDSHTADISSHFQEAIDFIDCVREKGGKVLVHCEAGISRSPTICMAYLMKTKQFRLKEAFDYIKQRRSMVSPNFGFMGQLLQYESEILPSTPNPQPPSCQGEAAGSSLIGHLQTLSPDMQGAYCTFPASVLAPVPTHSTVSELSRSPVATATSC
Chain of UniProt Q2FV99 (whole entry, looked up): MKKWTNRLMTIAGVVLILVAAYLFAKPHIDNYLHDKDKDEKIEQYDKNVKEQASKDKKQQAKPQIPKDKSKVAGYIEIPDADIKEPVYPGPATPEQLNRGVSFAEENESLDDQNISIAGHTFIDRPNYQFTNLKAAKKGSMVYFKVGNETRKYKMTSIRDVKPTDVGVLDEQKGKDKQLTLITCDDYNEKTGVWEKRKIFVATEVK

Substance	target	test	system	setting	IC50
CC(C)C[C@H](NC(=O)[C@H](C)NC(=O)[C@H](Cc1c[nH]c2ccccc12)NC(=O)[C@H](C)NC(=O)[C@H](C)NC(=O)[C@H](CC(C)C)NC(=O)[C@H](C)N)C(=O)O	Transcriptional regulator ComR (Streptococcus mutans serotype c, UniProt Q8DWI6)		Streptococcus mutans		10 µM
NNCCc1ccccc1	Beta-glucuronidase (uidA, Escherichia coli, UniProt P05804)	enzyme activity, inhibitor			2.28 µM
COc1ccc(N2C(=O)/C(=C/c3ccco3)C(=O)NC2=S)cc1	Cell death protein 3 (ced-3, Caenorhabditis elegans, UniProt P42573)	enzyme activity, inhibitor	purified enzyme	together with: 20 µM Ac-DEVD-AMC	1.5 µM
COc1cc([C@@H]2c3cc4c(cc3C(=O)[C@H]3COC(=O)[C@H]23)OCO4)cc(OC)c1OC	tubulin alpha/beta (Leishmania infantum, UniProt A0A381MCS3+A4HTR0)	tubulin polymerization, inhibitor		37 °C	4 ± 0.2 µM
Fc1ccccc1-c1nc2cc3nc4ccccc4nc3cc2[nH]1	Genome polyprotein protease	enzyme activity, inhibitor, fluorescence		pH 8.5	169 µM
O=C(NCCCCCCn1ccc2ccc(F)cc21)OC(C(F)(F)F)C(F)(F)F	MGLL (Homo sapiens, UniProt Q99685)	enzyme activity, inhibitor			2 µM
COc1ccc([N+](=O)[O-])c(S(=O)(=O)c2ccc(Cl)cc2)n1	TXNRD1 (Homo sapiens, UniProt Q16881)	enzyme activity, inhibitor		with preincubation	< 20 µM
N#C/C(=C/c1ccc(O)c(O)c1)C(=O)NCc1ccccc1	Tyrosine-protein kinase JAK2, residues 532-1132 (JAK2, Homo sapiens, UniProt O60674)	kinase activity, radiometric		aa 532-1132, together with: 20 µM ATP, GST-Abltide	36.4 µM
CC1=NN(c2ccccc2)C(=S)/C1=C/Nc1ccc(Br)cc1	srtA (Staphylococcus aureus, UniProt Q2FV99)	enzyme activity, inhibitor			< 5 µM
CCc1cccc(NC(=O)C(=O)[C@H](CC(C)C)NC(=O)[C@H](CC(C)C)NC(=O)[C@H](CC(C)C)NC(=O)OCc2ccccc2)c1	Proteasome component C5/PSMB5 chymotrypsin-like site	enzyme activity in cells, inhibitor			0.0348 µM
Oc1ccc(-c2cc(-c3ccc(O)cc3)c(-c3ccc(O)cc3)[se]2)cc1	Estrogen receptor (ESR1, Homo sapiens, UniProt P03372)	antagonist	HEK293T	together with: estradiol 10 nM	10.4 µM
O=C(Nc1ccc(Cl)cc1)Nc1ccc(Cl)c(Cl)c1	Ephx2 (Mus musculus, UniProt P34914)	enzyme activity, inhibitor, fluorescence			0.37 µM
Nc1ccc2c(c1)Oc1c(N3CC[C@@H](N)C3)c(F)cc3c(=O)c(C(=O)O)cn-2c13	DNA topoisomerase 1 (topA, Escherichia coli, UniProt P06612)	enzyme activity, inhibitor			0.48 to 0.97 µM
CC(C)c1ccc(-c2nc3cc4nc5ccccc5nc4cc3[nH]2)cc1	Genome polyprotein protease	enzyme activity, inhibitor, fluorescence		pH 8.5	92.1 µM
Cc1c(P(=S)(c2ccccc2)c2ccccc2)n2ccccc2[n+]1CCc1ccccc1	NPSR1 (Homo sapiens, UniProt Q6W5P4)	ERK phosphorylation, antagonist, HTRF	CHO (NPSR1 transfected)		0.063 µM
CC(=O)c1cccc(NC(=O)C(=O)[C@H](CC(C)C)NC(=O)[C@H](Cc2c[nH]c3ccccc23)NC(=O)[C@H](CC(C)C)NC(=O)OCc2ccccc2)c1	Proteasome component C5/PSMB5 chymotrypsin-like site	enzyme activity in cells, inhibitor			0.0295 µM
Ruthenium red	Piezo1 (Mus musculus, UniProt E2JF22)	mechanically activated current, pore blocker, whole-cell patch clamp		room temperature, -80 mV holding, voltage-dependent open-channel block	5.4 ± 0.9 µM
NCc1ccc(-c2ncc(NCC3CCNCC3)nc2C(=O)Nc2ccc(Br)cc2)cc1	Genome polyprotein NS2B-NS3 protease	inhibitor	Zika virus		12.6 µM
Oc1ccc(-c2ccc(Cl)cc2Cl)cc1Cl	SULT1E1 (Homo sapiens, UniProt P49888)	enzyme activity, inhibitor, radiometric		pH 7.4	0.0073 µM
CCC(=O)Nc1cc(Nc2cc(NC3CC3)n3ncc(C#N)c3n2)ccc1N1CCCC(N)C1 (stereo not shown)	CSNK2A1 (Homo sapiens, UniProt P68400)	target engagement in cells, BRET			0.00794 µM
Fc1ccc(-n2cc(COc3ccnc4cc(Cl)ccc34)nn2)cc1Cl	FP2A (Plasmodium falciparum, UniProt Q8I6U4)	enzyme activity, inhibitor, fluorescence		pH 5.5, with preincubation	45.1 µM and ~45 µM
O=C([O-])c1ccccc1-c1c2cc(Br)c(=O)cc-2oc2[c]([Hg+])c([O-])c(Br)cc12.[Na+].[Na+].[OH-]	Dual specificity protein phosphatase 5 (Homo sapiens, UniProt Q16690)	phosphatase activity		30 min, 1 mM DTT, together with: pNPP	23.6 ± 0.6 µM
CNCc1ccc(-c2nc(OCC3CCNCC3)cnc2-c2ccc(-c3ccoc3)cc2)cc1	Genome polyprotein NS2B-NS3 protease	inhibitor	Zika virus		3.3 µM
CO[C@H]1CC=C2CCN3CCC4=C(CC(=O)OC4)[C@]23C1	KCNK18 (Homo sapiens, UniProt Q7Z418)	ion flux, inhibitor			18.8 µM
CC[C@H](C)[C@H]1O[C@]2(CC[C@@H]1C)C[C@@H]1C[C@@H](C/C=C(\C)[C@@H](O[C@H]3C[C@H](OC)[C@@H](O[C@H]4C[C@H](OC)[C@@H](O)[C@H](C)O4)[C@H](C)O3)[C@@H](C)/C=C/C=C3\CO[C@@H]4[C@H](O)C(C)=C[C@@H](C(=O)O1)[C@]34O)O2	MDH2 (Sus scrofa, UniProt P00346)	enzyme activity, inhibitor			> 63 µM
